Results of several laboratories.
A part holds a random share of what one study measured. Positions count from the first letter of the parent shown.

Study 1
Target: Interferon regulatory factor 5, full length, phosphomimetic (IRF5, Homo sapiens, UniProt Q13568-2, residues 1-514, K96S/S451D/S453D/S456D/S462D)
Technique: protein-binding microarray
Molecule type: double-stranded DNA, one strand shown
Sample: in vitro
Tested at: 250 nM
Notes: 60-bp whole probe
Together with: salmon DNA 0.4 mg/ml
Relative to: random background probes
Direction: higher = stronger binding
All sequences stand within: GCCTAGCAC … GTCTTGATTCGCTTGACGCTGCTG
Sequence | log fluorescence [z-score]
GACGGTATCGGGACTGGGCACGTGCTA | 1.26
TTAGGTCTCCTTCTCCTTTAGTGCTAG | -0.0412
GACAGTTTCGGTATCGGGACGTGCTAG | 11
AGAATTTTCATTAACTGTTAGTGCTAG | 1.93
GACGATTTCGAGTATCGAGACGTGCTA | 3.3
CTTTAACTTATTCTCTACTTGTGCTAG | 0.786
TTAGTTCTCAGTATCGATTAGTGCTAG | 6.8
GACGGACTGCTACTGCGGACGTGCTAG | -0.723
TTAGAACTGGGGTATCGCTTAGTGCTA | 0.565
TCATTAATCACATATACAACTGTGCTA | 1.06
TCAGCTATCACTATTCTACTGTGCTAG | 2.25
TCAGGAGTCATTCTCAAACTGTGCTAG | -0.254
TCATCTTTGCTTCACCCACTGTGCTAG | 0.684
GACGAGATCGGGACTGGAGACGTGCTA | -0.266
GACCAACTGGGGACTGGAGACGTGCTA | -0.717
TTAGATTTCGCGACTGGATTAGTGCTA | 0.658
GACGGTATCCGGACTGGGGACGTGCTA | -0.107
TAAGGTATCGACACTGGGTTAGTGCTA | 1.28
TCAGGCTTTCCTTTATGACTGTGCTAG | 0.164
GACGATTTTAGACTGGAGACGTGCTAG | -0.0621
AGTAATGACCTTCTCAGGAGGTGCTAG | -0.235

Study 2
Target: RNA binding protein fox-1 homolog 2, RRM domain, GST-SBP tag (RBFOX2, Homo sapiens, UniProt O43251-10, residues 100-194)
Technique: RNA Bind-n-Seq
Molecule type: RNA
Sample: in vitro
Tested at: 365 nM
Notes: natural RNA segment, single round, ends assumed
Relative to: no-protein control
Direction: higher = stronger binding
All sequences stand within: GGGAGUUCUACAGUCCGACGAUC … UGGAAUUCUCGGGUGCCAA
Residues (chain): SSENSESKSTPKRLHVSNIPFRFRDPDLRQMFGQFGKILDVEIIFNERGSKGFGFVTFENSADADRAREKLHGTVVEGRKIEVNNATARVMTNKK
Sequence | RBNS enrichment (R)
AACAUAACCUUAUGCUGCCCUUGGCUUGGCCACAUUUGUUAAAUCCUUAUUAUAUUGAUACUCUUCUUGAGGAGGAAAUCUCACCUUUUCUUUUUCAAGAGAUUCUGAGG | 0.383
UUCAUUCAUCCUUAACGGUGUGGAAGGGUUGAUGGACUGGAAAGCAAGUGGUUGGUUCGCGUUGGCGGGUGACAGGUGCUGCGGUUGGAGACGGUGGGAUGGGAGAAGAG | 0.627
UUGCUAAGUCUAUUGAUGAUAUGAAUUGGAAAGGGAGAAUUUUGAAUAUGGUGAGAAAUUGGGAAAAAUGGACAUUGAUAGGCAUAUCAUCUGCUUUGUGUACAUAUGGU | 1.76
UGACAUAUGAAUCUAUUUAUUAUGUAGUACUGUGGCAGAGAAGGAAUCCAGGGGCCUGCACUGAUCGGGUAGCAGCUACUUUGCCUGUCCUUGGCCGUCUCCCUCAGCUC | 3.15
AAUGUAAAAUACUAUCUUUUAUGUCUAAAGCCAUUUUAUAUUACUUUUCAAUAAAAAGAAUAUCAUGGUCAACAUAGAAUAUUUUUCAUGAAUUGGUGGGGAGAUGUAUA | 0.33
AGGUGGGUGGGGCCCCUCUGUAAAUACGGCCCCAGGGUGGUGAGAGAGUCCCAUGCCACCCGUCCCCUUGUGACCUCCCCCCUCUGACCUCCAGCUGACCAUGCAUGCCA | 1.34
GUUAUAAAAAUAAGUGAUUUCAGAGUAGAUGUAGUGGCACAUGCUUUUGUCUUUAAUAGAGGAGGCAGAGGGAUCUGUGACUUAAAAGCCAGUCUGAUCUACAUUGUGAG | 0.374
AAACCCCACCUUUAUUCCUUCAUUUCAUCUACCAUUUUCUGGUUCUUGUGUUGGCUGUGGCAGGCCAGCUGUGGUUUUCUUUUGCCAUGACAACUUCUAAUUGCCAUGUA | 0.574
AAUGUUUAGCUCUCACAAAGAGAGAUAACCUUGGAUACAUCUUCAUCUUCUAGCUAUAUAAAGAAACAAUCCAGCUGCUUAGAAGCUGUGACUAAUACAGAGUUGACUUU | 0.288
AUAUGACAGCGCUUUGUAAAGCAGGCCAGUGGCAAGCUGGCCCACAGUAGAGAAACACUGUAGUUCACAGACCAUGCAACCGUGUUUCCACGAGAUGUUAUUACAACAAA | 0.246
CAUUAUAGCUUUUCAUGUAGAUCUGAGGCCCAGGUUACUGUAAUUCUUUUUUUUCCAAUUUCCUUGCUCCCAGGAUCCCCAUCUUGUAUAAAGUUUCUAAGGUGCUCCUC | 0.443
AAGUAUUUGUAUUUAUUUAUGAUUAUCAAUUUUACAUAACAUUAAUAUUAUAUCAGACCUCCUUAAGAAAAUGAGUAUGGAUGUUCACAGUAUGUUUGAUUUUUAUCCAC | 0.582

Study 3
Target: Centromere-binding protein 1, full length, His-tagged (CBF1, Saccharomyces cerevisiae, UniProt P17106, residues 1-351)
UniProt P17106, sequence (whole entry, looked up): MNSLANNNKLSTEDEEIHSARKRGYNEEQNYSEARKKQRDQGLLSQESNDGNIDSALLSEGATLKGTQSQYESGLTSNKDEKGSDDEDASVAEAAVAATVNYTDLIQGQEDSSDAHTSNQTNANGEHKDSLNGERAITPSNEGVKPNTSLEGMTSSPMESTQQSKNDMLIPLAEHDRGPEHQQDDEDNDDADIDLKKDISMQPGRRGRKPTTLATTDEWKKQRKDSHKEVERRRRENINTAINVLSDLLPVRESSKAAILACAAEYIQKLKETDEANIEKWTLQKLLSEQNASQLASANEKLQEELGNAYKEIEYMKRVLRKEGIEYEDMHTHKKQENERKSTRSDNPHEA
Technique: competition protein-binding microarray
Molecule type: double-stranded DNA, one strand shown
Sample: in vitro
Tested at: 2 µM
Notes: whole 60-bp probe, lowest competitor level
Together with: Pho4 competitor, 0.05 µM
Direction: higher = stronger binding
All sequences stand within: … GTCTTGATTCGCTTGACGCTGCTG
Sequence | fluorescence intensity [a.u.]
GGGCACAAGGAAAAACACGTGACGAATTTCTTTTTT | 7570
TGCGCAACAACTTGCGAGGTGGGTGTATGTCTAGAA | 64.9
ACCAATGGATGTTAGCACGTGTTTCAACTCAGCGGC | 2040
CATACCCAACCTTGCTTGGTGGGTGAAGATATTTGT | 67
TGGCGCCATCGCCATCACGATTTCAACCATGTCAAT | 61.1
GCCAAAATGCACTGTCACACGCTAAAGTGCTCGAAT | 79.4
GTCGGTCAACATCCGCACGATGTTCCGTTTTTCTTT | 74.7
AAAAGATATTATCCTCACGTGGAGTTATTGTAAAAA | 869
AAAGCGGTAATTTGGTCGGTGGGTGCAGATATCTAT | 67.3
GCTACGCATTCCCTTCGCGTGAGACCATCAAATCTC | 74.4
CCGGAACAACCTTGGTGCATGACAGAACGTAGACCA | 69.7
CGCTGTTACTTCTCGCGCGTGATGGGGTCAGCGAAG | 140
CTTTCCCGATCTTTTCACGTGTCATTAGCACATTTG | 1060
ACTTGGCAGTAAGAACACGTGTCGGTACCGGAGCGG | 1260
AAAGCGGTAATTTTTCACGTGGTTTCACATATCTAT | 1790
GTCTTGTCTCATTTTCACGTGCTTTTCCCCACTTCA | 976
CAGACGGGAAGCAGGCGCGTGCTGGCGGTGACCTGG | 66.1
TTCATTGATGAAATTCACATGTTAATGGGTAATGGT | 164
CATACCCAACCTTGAGCTGTGGGTGAAGATATTTGT | 61.5
CTGTATACCTAATGAATCGTGGGTATTGTCTTCGTC | 80.4
TGTACCATAGGTGTCCACATGTAAAGACAATGGTTC | 98.3
AGCTTTGAAAACTCCCATGTGGCGCGCCCGTCTTAA | 70.9
AAATTACTAAGTTTTCACGTGTAGTACCCCGTATGA | 734
CGTCCTAGTGATTGGCGCGTGGGTGCCATGAGGAAG | 92.1
CTTTCCCGATCTTGATGTGTGGGTGTAGCACATTTG | 80.2

Study 4
Target: ABI1, truncated, D143A, DHFR fusion (Arabidopsis thaliana)
Technique: DHFR PCA, deep sequencing
Sample: yeast
Notes: methotrexate growth selection, single substitutions
Together with: (+)-ABA 17 µM
Relative to: wild-type fitted maximum
Direction: higher = stronger binding
Starting sequence: PYL1, truncated, DHFR fusion (Arabidopsis thaliana); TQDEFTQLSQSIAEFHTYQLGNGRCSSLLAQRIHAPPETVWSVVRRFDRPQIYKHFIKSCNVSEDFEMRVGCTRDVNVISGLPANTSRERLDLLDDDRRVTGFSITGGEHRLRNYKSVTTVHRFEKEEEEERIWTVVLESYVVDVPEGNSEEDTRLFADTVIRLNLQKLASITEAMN
Change | relative binding score [%]
G81D | 3.41
T173P | 2.78
R49M | 80.2
T119Y | -2.23
V137M | -6.16
E4H | 72
V76H | -8.95
S59A | 79.7
Q31F | 21.5
I52N | 54.4
R24G | 36.8
V142P | -16.8
V43H | 23
N149C | 30.2
T119G | -10.4
D95Y | 9.24
W41V | -1.2
D95W | 7.73

Excerpt of the above (study 3):
Sequence | fluorescence intensity [a.u.]
GCCAAAATGCACTGTCACACGCTAAAGTGCTCGAAT | 79.4
CCGGAACAACCTTGGTGCATGACAGAACGTAGACCA | 69.7
ACCAATGGATGTTAGCACGTGTTTCAACTCAGCGGC | 2040
GGGCACAAGGAAAAACACGTGACGAATTTCTTTTTT | 7570
GTCGGTCAACATCCGCACGATGTTCCGTTTTTCTTT | 74.7
CAGACGGGAAGCAGGCGCGTGCTGGCGGTGACCTGG | 66.1
ACTTGGCAGTAAGAACACGTGTCGGTACCGGAGCGG | 1260
CTTTCCCGATCTTTTCACGTGTCATTAGCACATTTG | 1060
AGCTTTGAAAACTCCCATGTGGCGCGCCCGTCTTAA | 70.9
TTCATTGATGAAATTCACATGTTAATGGGTAATGGT | 164
